Assay results collected from several papers.
Lines come from different studies, so protocols differ. ± marks the error that the study gave.
ALPL: Alkaline phosphatase, tissue-nonspecific isozyme (ALPL, Homo sapiens, UniProt P05186)
Genome polyprotein NS2B-NS3 protease: Genome polyprotein, NS2B-NS3 protease (ZIKV, UniProt A0A024B7W1)
Proteasome component C5/PSMB5 chymotrypsin-like site: Proteasome component C5/PSMB5, chymotrypsin-like site (Homo sapiens, UniProt P20618+P28074)
topA: DNA topoisomerase 1 (topA, Escherichia coli, UniProt P06612)

`O=C1Nc2ccc(S(=O)(=O)O)cc2C1=C1Nc2ccccc2C1=NO` has an IC50 of 2.22 µM (Glycogen synthase kinase 3, short isoform (Leishmania infantum, UniProt A4HXQ3); enzyme activity, inhibitor; 90 min, 30 °C, together with: ATP 2 µM).
For `O=C(O)c1cc(-c2ccccc2Cl)n[nH]1`, the IC50 was 0.982 µM (ALPL; enzyme activity, inhibitor, luminescence; together with: CDP-star substrate, 100 mM DEA).
`CC(=O)C(N=Nc1ccc(S(=O)(=O)Nc2ccccn2)cc1)C(=O)Nc1ccc(Cl)cc1` (stereo not shown) has an IC50 of greater than 10 µM (Genome polyprotein NS2B-NS3 protease; enzyme activity, inhibitor; Zika virus; pH 8.0, together with: 20 µM Pyr-RTKR-AMC).
`CC(C)C[C@H](NC(=O)OCc1ccccc1)C(=O)N[C@@H](CC(C)C)C(=O)N[C@@H](CC(C)C)C(=O)C(=O)Nc1cccc2cnccc12` gave an IC50 of 0.0641 µM (Proteasome component C5/PSMB5 chymotrypsin-like site; enzyme activity in cells, inhibitor).
For `COc1cc(O)c2c(c1)oc(=O)c1c3cc(O)c(O)cc3oc21`, the IC50 was 80 µM (Genome polyprotein, NS5B polymerase (Hepatitis C virus genotype 1b, UniProt P26663); RNA polymerase activity, inhibitor; NS5B-RNA preincubated before inhibitor).
`CCOP(=O)(OCC)Oc1nc(Cl)c(Cl)cc1Cl` gave an IC50 of 0.007 µM (muscarinic receptors, rat; radioligand displacement; adult cortex membranes; 90 min, 21 °C, together with: 1 nM [3H]oxotremorine-M).
`CC(=O)NCc1ccc(-c2ncc(OCC3CCNCC3)nc2-c2ccc(CNC(C)=O)cc2)cc1` gave an IC50 of greater than 10 µM (Genome polyprotein NS2B-NS3 protease; inhibitor; Zika virus).
The IC50 of `O=C(Nc1ccc2c(c1)S(=O)(=O)C=C2)c1cc(Cl)ccc1O` is reported as 20.3 µM (Genome polyprotein, protease (dengue virus type 2, UniProt P29990); enzyme activity, inhibitor, FRET).
`COc1ccc(-n2cc(COc3ccnc4cc(Cl)ccc34)nn2)cc1` has an IC50 of 25.4 µM (FP2A (Plasmodium falciparum, UniProt Q8I6U4); enzyme activity, inhibitor, fluorescence; pH 5.5, with preincubation).
With `CCCCCc1cc(OC(=O)c2c(CCCCC)cc(OCc3ccccc3)cc2OCc2ccccc2)cc(O)c1C(=O)OCc1ccccc1` the IC50 was greater than 1000 µM (topA; enzyme activity, inhibitor).
`O=C([O-])c1ccccc1-c1c2cc(Br)c(=O)cc-2oc2[c]([Hg+])c([O-])c(Br)cc12.[Na+].[Na+].[OH-]` gave an IC50 of 4.1 ± 0.1 µM (Dual specificity protein phosphatase 5 (Homo sapiens, UniProt Q16690); phosphatase activity; 60 min, without DTT, together with: pNPP).
`O=C(O)c1ccccc1-c1c2ccc(=O)c([As]3SCCS3)c-2oc2c([As]3SCCS3)c(O)ccc12` has an IC50 of roughly 0.12 µM (PTPN1 (Homo sapiens, UniProt P18031, P87C); enzyme activity, inhibitor; 120 min pre-incubation, together with: pNPP substrate).
With `O=[N+]([O-])c1ccc(/N=N/c2ccc3nc(-c4ccccc4)c(I)c(-c4ccccc4)c3c2)cc1` the IC50 was 9.3 µM (ache (Electrophorus electricus, UniProt O42275); enzyme activity, inhibitor, Ellman; pH 7.4).
With `O=C1C2CC=CCC2C(=O)N1c1n[nH]c(Cc2ccccc2)n1` (stereo not shown) the IC50 was 32.6 ± 3.55 µM (ALPL; enzyme activity, inhibitor, luminescence; together with: 1 M DEA, 50 µM CDP-star).
The IC50 of `C[n+]1ccc2c(c1)[nH]c1ccccc12` is reported as 1.05 µM (SLC22A2 (Homo sapiens, UniProt O15244); transporter uptake, inhibitor, fluorescence).
`CC12CC3CC1(C)C1(C)CC3(N)CC21C` gave an IC50 of 2.78 ± 0.25 µM (Glutamate NMDA receptor; Grin1/Grin2a (Grin1/Grin2a, Rattus norvegicus, UniProt P35439+Q00959); glutamate-evoked current, inhibitor, whole-cell patch clamp; tsA201 cells; holding potential -65 mV, together with: 1 mM glutamate).
`N#C/C(=C/c1ccc(O)c(O)c1)C(=O)NCc1ccccc1` gave an IC50 of 36.4 µM (Tyrosine-protein kinase JAK2, residues 532-1132 (JAK2, Homo sapiens, UniProt O60674); kinase activity, radiometric; aa 532-1132, together with: 20 µM ATP, GST-Abltide).
`Oc1ccc(-c2c[se]cc2-c2ccc(O)c(F)c2)cc1F` gave an IC50 of 0.001 µM (ESR2 (Homo sapiens, UniProt Q92731); antagonist; HEK293T; together with: estradiol 10 nM).
The IC50 of `Oc1ccc(-c2ccc(Cl)cc2Cl)cc1Cl` is reported as 0.0073 µM (SULT1E1 (Homo sapiens, UniProt P49888); enzyme activity, inhibitor, radiometric; pH 7.4).
`NCc1ccc(-c2ncc(OCC3CCNCC3)nc2-c2ccc3[nH]ccc3c2)cc1` has an IC50 of 1.1 µM (Genome polyprotein NS2B-NS3 protease; inhibitor; Zika virus).
`Cc1c(P(=S)(c2ccccc2)c2ccccc2)n2ccccc2[n+]1CCCc1ccccc1` gave an IC50 of 0.0016 µM (NPSR1 (Homo sapiens, UniProt Q6W5P4); calcium mobilization, antagonist; CHO).
`Nc1ccccc1C(=O)O` has an IC50 of 5.15 µM (mushroom tyrosinase; monophenolase activity, inhibitor; pH 6.8, 20 °C, together with: p-coumaric acid substrate).
`COP(=O)(OC)SCn1nnc2ccccc2c1=O` has an IC50 of 0.337 µM (rat liver carboxylesterase; enzyme activity, inhibitor; rat, postnatal day 70, liver homogenate; together with: p-nitrophenyl valerate).
With `C=C(NC(=O)C(=C)NC(=O)c1csc(C2=N[C@@H]3c4csc(n4)[C@H]4NC(=O)c5csc(n5)[C@H]([C@](C)(O)[C@@H](C)O)NC(=O)[C@H]5CSC(=N5)/C(=C/C)NC(=O)[C@H]([C@@H](C)O)NC(=O)c5csc(n5)[C@]3(CC2)NC(=O)[C@H](C)NC(=O)C(=C)NC(=O)[C@H](C)NC(=O)[C@H]([C@@H](C)CC)N[C@@H]2C=Cc3c([C@H](C)O)cc(nc3[C@H]2O)C(=O)O[C@@H]4C)n1)C(N)=O` the IC50 was 0.95 ± 0.15 µM (Proteasome subunit beta type-7, in 20S proteasome (PSMB7, Homo sapiens, UniProt Q99436); trypsin-like activity, inhibitor; purified human 20S proteasome; 37 °C, 15 min preincubation, together with: Boc-Leu-Arg-Arg-AMC).
The IC50 of `CC(C)C[C@H](NC(=O)CN)C(=O)N[C@@H](CC(=O)O)C(=O)N[C@@H](Cc1c[nH]c2ccccc12)C(=O)N[C@@H](Cc1c[nH]c2ccccc12)C(=O)N[C@@H](CO)C(=O)O` is reported as greater than 50 µM (Transcriptional regulator ComR (Streptococcus mutans serotype c, UniProt Q8DWI6); Streptococcus mutans).
For `CN1C(=O)[C@]23SS[C@@]1(C)C(=O)N2[C@H]1Nc2ccccc2[C@@]1([C@@]12c4ccccc4N[C@@H]1N1C(=O)[C@@]4(C)SS[C@]1(C(=O)N4C)[C@H]2O)[C@@H]3O`, the IC50 was greater than 10 µM (KMT2B (Homo sapiens, UniProt Q9UMN6); methyltransferase activity, inhibitor; together with: 1 µM [3H]SAM).
The IC50 of `O=C(OCc1ccccc1)c1ccc(OC(=O)c2ccc(OCc3ccccc3)cc2OCc2ccccc2)cc1O` is reported as greater than 1000 µM (topA; enzyme activity, inhibitor).
With `C[C@@H]1C[C@H]2[C@@H]3CCC4=CC(=O)C=C[C@]4(C)[C@@]3(Cl)[C@@H](O)C[C@]2(C)[C@@]1(OC(=O)c1ccco1)C(=O)CCl` the IC50 was 1.4 ± 0.3 µM (ABCC1 (Homo sapiens, UniProt P33527); efflux, inhibitor; SupT1-Vin overexpressing ABCC1; together with: DiOC2(3) 100 nM).
With `COc1ccc(CCN2CCN(c3ccccc3OC)CC2)cc1OC` the IC50 was greater than 100 µM (CYP2C19 (Homo sapiens, UniProt P33261); enzyme activity, inhibitor; human, liver microsomes).
`Cc1cccc(C)c1OCC(=O)N[C@@H](Cc1ccccc1)[C@@H](O)C[C@H](Cc1ccccc1)NC(=O)[C@H](C(C)C)N1CCCNC1=O` gave an IC50 of 4.2 ± 0.6 µM (SLCO1B3 (Homo sapiens, UniProt Q9NPD5); transport, inhibitor; 10 (unit not given), pre-incubation, together with: cholecystokinin).
For `[I-].[Na+]`, the IC50 was 10000 µM (OXA-48 (Klebsiella pneumoniae, UniProt Q6XEC0, del214-217/S212D); enzyme activity, inhibitor; pH 7.2, with preincubation).
The IC50 of `CCn1cnc2c(Nc3cccc(Cl)c3)nc(N[C@@H]3CCCC[C@@H]3N)nc21` is reported as 28 ± 5 µM (PSMB5 (Homo sapiens, UniProt P28074); enzyme activity; together with: Suc-LLVY-AMC substrate, ATP).
The IC50 of `COc1ccc([N+](=O)[O-])c(S(=O)(=O)c2ccc(Cl)cc2)n1` is reported as less than 20 µM (TXNRD1 (Homo sapiens, UniProt Q16881); enzyme activity, inhibitor; with preincubation).
`CC(C)C[C@H](NC(=O)OCc1ccccc1)C(=O)N[C@@H](Cc1c[nH]c2ccccc12)C(=O)N[C@@H](CC(C)C)C(=O)C(=O)Nc1cccc(S(C)(=O)=O)c1` gave an IC50 of 0.0601 µM (Proteasome component C5/PSMB5 chymotrypsin-like site; enzyme activity in cells, inhibitor).
With `CC(C)C[C@H](NC(=O)CN)C(=O)N[C@@H](C)C(=O)N[C@@H](C)C(=O)N[C@@H](C)C(=O)N[C@H](C(=O)N[C@H](C(=O)N[C@@H](C)C(=O)N[C@H](C(=O)O)C(C)C)C(C)C)C(C)C` the IC50 was 0.0013 µM (HLA class I histocompatibility antigen, A alpha chain, allele A*02:03 (Homo sapiens, UniProt P04439); peptide binding, radiolabelled peptide competition; together with: radiolabelled standard peptide).
For `FC(F)OC(Cl)C(F)(F)F` (stereo not shown), the IC50 was 60 µM (Proton-gated ion channel (glvI, Gloeobacter violaceus, UniProt Q7NDN8); pH 5.5).
`CN1CCN(C2Cc3ccccc3Sc3ccc(Cl)cc32)CC1` (racemic) has an IC50 of 7.23 µM (KCNK18 (Homo sapiens, UniProt Q7Z418); ion flux, inhibitor).
`CCCCC/C=C\C/C=C\C/C=C\C/C=C\CCCCN1C(=O)C=CC1=O` has an IC50 of 1.4 µM (MGLL (Homo sapiens, UniProt Q99685, C208A); enzyme activity, inhibitor; together with: AHMMCE substrate).
`NCc1ccc(-c2ncc(OCC3CCNCC3)nc2-c2cccc3[nH]ccc23)cc1` gave an IC50 of 7.1 µM (Genome polyprotein NS2B-NS3 protease; inhibitor; Zika virus).
`CC(=O)c1ccc(-c2ccc(C(=O)N[C@@H](CC(C)C)C(=O)N[C@@H](CC(C)C)C(=O)N[C@@H](CC(C)C)C(=O)C(=O)Nc3cccc(C(C)=O)c3)o2)cc1` gave an IC50 of 0.0253 µM (Proteasome component C5/PSMB5 chymotrypsin-like site; enzyme activity in cells, inhibitor).
The IC50 of `CCO` is reported as 52100 ± 1500 µM (Cys-loop ligand-gated ion channel (Dickeya chrysanthemi, UniProt P0C7B7)).
`CC(=O)OC[C@H]1O[C@@H]([S-])[C@H](OC(C)=O)[C@@H](OC(C)=O)[C@@H]1OC(C)=O.CCP(CC)CC.[Au+]` gave an IC50 of 9.76 µM (thioredoxin reductase (Acinetobacter baumannii, UniProt A0A0G4QN87); enzyme activity, inhibitor; together with: DTNB).
For `NNCCc1ccccc1`, the IC50 was 2.28 µM (Beta-glucuronidase (uidA, Escherichia coli, UniProt P05804); enzyme activity, inhibitor).
`Fc1ccc(C(OCCN2CCN(CCCc3ccccc3)CC2)c2ccc(F)cc2)cc1` gave an IC50 of 3.08 ± 0.5 µM (Dopamine transporter (Schistosoma mansoni, UniProt E9LD23)).
`CC1=NN(c2ccccc2)C(=S)/C1=C/Nc1ccc(Br)cc1` has an IC50 of less than 5 µM (srtA (Staphylococcus aureus, UniProt Q2FV99); enzyme activity, inhibitor).
The IC50 of `CCCCCCCCCC1=C(O)C(=O)c2ccccc2C1=O` is reported as 0.18 µM (COB/RIP1 (Saccharomyces cerevisiae, UniProt P00163+P08067); enzyme activity, inhibitor; pH 7.0, 23 °C).
